{"data": "Published values gathered from unrelated publications", "cell line": "HL-60(TB)", "note": "Protocols differ between the studies behind these lines. Several values in a cell are separate wells, animals, samples, runs or records."}
{"Compound": "CSc1nc(-c2ccc(Cl)cc2)c2c(NC(=O)c3ccccc3)nnc-2[nH]1", "setting": "10 µM", "quantity": "growth percent", "value": "94.1%"}
{"Compound": "CCN(CC)c1ccc(C=NNC(=O)CSc2nc3ccccc3c(=O)n2Cc2ccc(S(N)(=O)=O)cc2)c(O)c1", "assay": "cell growth", "quantity": "TGI", "value": "5.38 µM"}
{"Compound": "Cn1cncc1C1=CN(c2ncnc3[nH]cnc23)CCS1", "quantity": "CC50", "value": "> 200 µM"}
{"Compound": "COc1c(CCC[P+](c2ccccc2)(c2ccccc2)c2ccccc2)cc2c(c1OC)OCO2.[I-]", "assay": "SRB", "quantity": "Log10LC50", "value": "> -4 log M"}
{"Compound": "CCCCN1CCN(c2ccc3nc(-c4ccc5nc(-c6cc(OC)ccc6OC)[nH]c5c4)[nH]c3c2)CC1", "assay": "cell growth", "setting": "10 µM, 48 h", "quantity": "growth percent", "value": "115%"}
{"Compound": "CN1CCN(C2(CNC3CCN(c4cccc(-c5cc6cc(F)ccc6[nH]5)c4)CC3)CCC2)CC1", "quantity": "GI50", "value": "1.97 µM"}
{"Compound": "O=C(Nc1nnc2[nH]c(=S)[nH]c(-c3ccc(Cl)cc3)c1-2)c1ccccc1", "setting": "10 µM", "quantity": "growth percent", "value": "96.1%"}
{"Compound": "CCCCN1CCN(c2ccc3[nH]c(-c4ccc5[nH]c(-c6ccc(OCC)cc6)nc5c4)nc3c2)CC1", "assay": "cell growth", "setting": "10 µM, 48 h", "quantity": "growth percent", "value": "34.3%"}
{"Compound": "O=c1ccn(Cc2cn(-c3c4ccccc4nc4ccccc34)nn2)c(=O)[nH]1", "assay": "NCI60 single dose", "setting": "10 µM", "quantity": "growth", "value": "75.7%"}
{"Compound": "C#C[C@@]1(O)[C@@H](CO)O[C@@H](n2ccc3c(N)ncnc32)[C@@H]1O", "assay": "cell growth", "quantity": "TGI", "value": "5.49 µM"}
{"Compound": "Cc1cc(=O)[nH]c(=O)n1Cc1cn(-c2cc3ccccc3oc2=O)nn1", "assay": "NCI60 single dose", "setting": "10 µM", "quantity": "growth", "value": "101%"}
{"Compound": "Cc1cc(C)n(-c2nc(-c3ccc(Cl)cc3)c3c(NC(=O)c4ccccc4)nnc-3[nH]2)n1", "setting": "10 µM", "quantity": "growth percent", "value": "101%"}
{"Compound": "C#C[C@@]1(O)[C@@H](CO)O[C@@H](n2cc(Cl)c3c(N)ncnc32)[C@@H]1O", "assay": "cell growth", "quantity": "TGI", "value": "0.317 µM and 0.197 µM"}
{"Compound": "CCCN1CCN(c2ccc3[nH]c(-c4ccc5[nH]c(-c6cc(OC)c(OC)c(OC)c6)nc5c4)nc3c2)CC1", "assay": "cell growth", "setting": "10 µM, 48 h", "quantity": "growth percent", "value": "97.4%"}
{"Compound": "Cc1cc(=O)[nH]c(=O)n1Cc1cn(-c2c3ccccc3nc3ccccc23)nn1", "assay": "NCI60 single dose", "setting": "10 µM", "quantity": "growth", "value": "16.3%"}
{"Compound": "COc1cc(CCC[P+](c2ccccc2)(c2ccccc2)c2ccccc2)c(OC)c(OC)c1OC.[I-]", "assay": "NCI60 SRB", "setting": "concentration not given", "quantity": "growth percent", "value": "65.7%"}
{"Compound": "CN1CCN(c2ccc3[nH]c(-c4ccc5[nH]c(-c6ccc(C(F)(F)F)cc6)nc5c4)nc3c2)CC1", "assay": "cell growth", "setting": "10 µM, 48 h", "quantity": "growth percent", "value": "23.9%"}
{"Compound": "NNc1nc(-c2ccc(Cl)cc2)c2c(NC(=O)c3ccccc3)nnc-2[nH]1", "setting": "10 µM", "quantity": "growth percent", "value": "92.5%"}
{"Compound": "COc1cc(CCCO)c(OC)c2c1OCO2", "assay": "NCI60 SRB", "setting": "concentration not given", "quantity": "growth percent", "value": "99.4%"}
{"Compound": "Cc1cc(=O)[nH]n1-c1nc(-c2ccc(Cl)cc2)c2c(NC(=O)c3ccccc3)nnc-2[nH]1", "setting": "10 µM", "quantity": "growth percent", "value": "102%"}
{"Compound": "COc1cc(CCC[P+](c2ccccc2)(c2ccccc2)c2ccccc2)c(OC)c2c1OCO2.[I-]", "assay": "SRB", "quantity": "Log10TGI", "value": "-5.63 log M"}
{"Compound": "CCCN1CCN(c2ccc3nc(-c4ccc5nc(-c6cc(OC)ccc6OC)[nH]c5c4)[nH]c3c2)CC1", "assay": "cell growth", "setting": "10 µM, 48 h", "quantity": "growth percent", "value": "106%"}
{"Compound": "COc1cc(CNC(=O)CCCCC[P+](c2ccccc2)(c2ccccc2)c2ccccc2)c(OC)c2c1OCO2.[Br-]", "assay": "NCI60 SRB", "setting": "concentration not given", "quantity": "growth percent", "value": "-2.75%"}
{"Compound": "CC(C)N1CCC(NC2CCN(c3cccc(-c4cc5cc(F)ccc5[nH]4)c3)CC2)CC1", "quantity": "CC50", "value": "7.86 µM"}
{"Compound": "O=C(Nc1nnc2n3c(Cc4ccccc4)n[nH]c3nc(-c3ccc(Cl)cc3)c1-2)c1ccccc1", "setting": "10 µM", "quantity": "growth percent", "value": "98%"}
{"Compound": "CCCN1CCN(c2ccc3[nH]c(-c4ccc5[nH]c(-c6ccc(OCC)c(OCC)c6)nc5c4)nc3c2)CC1", "assay": "cell growth", "setting": "10 µM, 48 h", "quantity": "growth percent", "value": "-23.1%"}
{"note": "A few entries again:"}
{"Compound": "Cc1cc(=O)[nH]c(=O)n1Cc1cn(-c2cc3ccccc3oc2=O)nn1", "assay": "NCI60 single dose", "setting": "10 µM", "quantity": "growth", "value": "101%"}
{"Compound": "CSc1nc(-c2ccc(Cl)cc2)c2c(NC(=O)c3ccccc3)nnc-2[nH]1", "setting": "10 µM", "quantity": "growth percent", "value": "94.1%"}
{"Compound": "CCN(CC)c1ccc(C=NNC(=O)CSc2nc3ccccc3c(=O)n2Cc2ccc(S(N)(=O)=O)cc2)c(O)c1", "assay": "cell growth", "quantity": "TGI", "value": "5.38 µM"}
